Measured values from different studies.
Parts stem from different laboratories: compare values within a part only. Substitutions count along the parent as printed.

Block 1 — Substitution: E4H; technique: DHFR PCA, deep sequencing; matrix: yeast; reference: wild-type fitted maximum; reading: higher = stronger binding
Target: ABI1, truncated, D143A, DHFR fusion (Arabidopsis thaliana)
Notes: methotrexate growth selection, single substitutions
Starting sequence: PYL1, truncated, DHFR fusion (Arabidopsis thaliana); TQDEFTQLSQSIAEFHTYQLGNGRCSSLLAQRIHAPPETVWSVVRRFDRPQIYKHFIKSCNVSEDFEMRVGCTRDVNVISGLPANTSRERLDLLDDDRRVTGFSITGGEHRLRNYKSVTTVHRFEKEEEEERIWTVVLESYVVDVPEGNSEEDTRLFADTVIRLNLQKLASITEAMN
For added: (+)-ABA 1.4 µM: “relative binding score” read 51.2%.
The “relative binding score” was 103% (added: (+)-ABA 710 µM).
For added: (+)-ABA 17 µM: “relative binding score” read 72%.
added: (+)-ABA 0.39 µM — “relative binding score”: 24%.
The “relative binding score” was 14.7% (added: (+)-ABA 0.11 µM).
It gave 6.6% for “relative binding score” (added: (+)-ABA 0.0091 µM).

Block 2 — target: tungstate, free oxyanion; technique: microfluidic competitive inhibition; matrix: in vitro, cell-free expressed; tested at: not given; reading: lower = stronger binding
Notes: derived from inhibition constants, unchanged parent 2230 nM
Starting sequence: PafA, mature enzyme, eGFP fusion (Elizabethkingia meningoseptica, UniProt Q9KJX5); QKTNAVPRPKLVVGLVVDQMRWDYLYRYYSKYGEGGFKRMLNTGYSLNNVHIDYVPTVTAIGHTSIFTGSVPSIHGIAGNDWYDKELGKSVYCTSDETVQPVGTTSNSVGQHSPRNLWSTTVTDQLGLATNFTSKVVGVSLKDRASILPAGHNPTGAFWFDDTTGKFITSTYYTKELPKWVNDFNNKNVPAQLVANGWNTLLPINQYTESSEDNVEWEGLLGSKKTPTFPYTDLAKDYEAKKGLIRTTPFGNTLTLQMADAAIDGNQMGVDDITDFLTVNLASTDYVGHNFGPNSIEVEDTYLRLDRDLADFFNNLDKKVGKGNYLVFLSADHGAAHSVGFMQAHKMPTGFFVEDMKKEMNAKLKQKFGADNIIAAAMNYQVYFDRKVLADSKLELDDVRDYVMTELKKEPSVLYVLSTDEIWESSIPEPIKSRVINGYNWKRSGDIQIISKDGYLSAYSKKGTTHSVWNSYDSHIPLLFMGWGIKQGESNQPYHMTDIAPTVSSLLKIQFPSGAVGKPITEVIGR
`F167V`: “oxyanion analog dissociation constant” 3.47 µM.
For `N182G`, “oxyanion analog dissociation constant” read 2.22 µM.
`G265A` — result for “oxyanion analog dissociation constant”: 2.35 µM.

Block 3 — effect on: binding; technique: phage display NGS; form: peptide; tested at: concentration not given; reference: input library
Target: UDP-N-acetylglucosamine--peptide N-acetylglucosaminyltransferase 110 kDa subunit (OGT, Homo sapiens, UniProt O15294)
UniProt O15294, sequence (whole entry, looked up): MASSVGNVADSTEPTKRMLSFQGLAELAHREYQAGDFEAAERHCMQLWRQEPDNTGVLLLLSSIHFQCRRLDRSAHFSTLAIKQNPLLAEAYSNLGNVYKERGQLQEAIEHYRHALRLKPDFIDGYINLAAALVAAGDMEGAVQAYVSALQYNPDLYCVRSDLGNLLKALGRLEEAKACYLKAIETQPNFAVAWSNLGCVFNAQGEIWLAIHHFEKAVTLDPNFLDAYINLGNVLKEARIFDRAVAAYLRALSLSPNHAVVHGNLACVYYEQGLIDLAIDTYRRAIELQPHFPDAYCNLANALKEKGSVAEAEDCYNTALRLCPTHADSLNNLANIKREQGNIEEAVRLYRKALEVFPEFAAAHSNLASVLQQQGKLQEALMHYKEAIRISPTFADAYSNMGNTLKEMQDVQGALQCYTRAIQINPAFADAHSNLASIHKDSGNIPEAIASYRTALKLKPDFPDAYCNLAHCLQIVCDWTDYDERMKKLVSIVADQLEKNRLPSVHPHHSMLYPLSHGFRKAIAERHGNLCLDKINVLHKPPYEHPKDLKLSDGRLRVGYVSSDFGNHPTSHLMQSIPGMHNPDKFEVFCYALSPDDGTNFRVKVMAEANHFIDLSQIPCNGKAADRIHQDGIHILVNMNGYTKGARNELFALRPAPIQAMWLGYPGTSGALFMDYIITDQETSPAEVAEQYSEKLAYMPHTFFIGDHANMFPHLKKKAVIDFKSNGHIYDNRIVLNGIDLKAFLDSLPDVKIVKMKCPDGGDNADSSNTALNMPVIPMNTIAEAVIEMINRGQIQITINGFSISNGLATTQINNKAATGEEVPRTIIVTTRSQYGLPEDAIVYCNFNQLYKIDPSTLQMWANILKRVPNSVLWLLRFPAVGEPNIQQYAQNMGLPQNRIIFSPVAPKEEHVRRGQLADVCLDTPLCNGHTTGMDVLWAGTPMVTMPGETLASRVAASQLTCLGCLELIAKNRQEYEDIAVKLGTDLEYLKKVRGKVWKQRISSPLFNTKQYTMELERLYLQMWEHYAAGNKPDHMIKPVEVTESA
`TFRTHHFHHDLSQF` — result for “enrichment fold change”: 9.8.
`IHYEPQYPITYKTYT`: “enrichment fold change” 3.25.
For `IHAGLEPKYQISYTY`, “enrichment fold change” read 3.23.
For `HLQYPDHPIHEHTHI`, “enrichment fold change” read 12.6.

Block 4 — technique: RNA Bind-n-Seq; form: RNA; matrix: in vitro; tested at: 20 nM; notes: 6-mer, flanks averaged, single round; added: 150 mM LiCl; reference: input library; reading: higher = stronger binding
Target: TAR DNA-binding protein 43, full length, His tag (TARDBP, Homo sapiens, UniProt Q13148, residues 1-414)
Under “6-mer enrichment (R)”, `GACGGU` is recorded as 0.983.
`UUUCGU` — result for “6-mer enrichment (R)”: 1.04.
`UACGCG`: “6-mer enrichment (R)” 0.905.
For `GUUGGG`, “6-mer enrichment (R)” read 1.34.
`GUCAAA`: “6-mer enrichment (R)” 0.903.
`GUGUGA` — result for “6-mer enrichment (R)”: 1.86.
Under “6-mer enrichment (R)”, `GCCAUC` is recorded as 0.884.
Under “6-mer enrichment (R)”, `GGCGCC` is recorded as 1.02.

Excerpt of the above (block 2):
For `N182G`, “oxyanion analog dissociation constant” read 2.22 µM.
`G265A` — result for “oxyanion analog dissociation constant”: 2.35 µM.
`F167V`: “oxyanion analog dissociation constant” 3.47 µM.
